Assay results collected from several papers.
Each numbered part is a random draw from the data of one study; scales do not carry over between parts.

Study 1
Target: Sal-like protein 4, full length isoform B (SALL4, Homo sapiens, UniProt Q9UJQ4-2, residues 1-616)
Technique: universal PBM
Molecule type: double-stranded DNA, one strand shown
Medium: in vitro
Tested at: not given
Notes: 8-mer, flanks averaged, mean of replicates
Reading: higher = stronger binding
| Sequence | E-score |
| --- | --- |
| CGGCCTCC | -0.335 |
| CAATGGCG | -0.275 |
| GACTCTCC | -0.0638 |
| GATCCGCC | -0.162 |
| ATGCGCAA | -0.0195 |
| CCAATGCC | -0.196 |
| AACTGGAC | -0.0627 |
| GGTGGTTA | -0.0726 |

Study 2
Target: Interferon regulatory factor 7, full length, phosphomimetic (IRF7, Homo sapiens, UniProt Q92985, residues 1-503, S101K/S471D/S472D/S475D/S476D/S477D/S483D/S484D/S487D)
Technique: protein-binding microarray
Molecule type: double-stranded DNA, one strand shown
Medium: in vitro
Tested at: 250 nM
Notes: 60-bp whole probe
Together with: salmon DNA 0.4 mg/ml
Relative to: random background probes
Reading: higher = stronger binding
All sequences stand within: GCCTAGCAC … GTCTTGATTCGCTTGACGCTGCTG
Construct (chain): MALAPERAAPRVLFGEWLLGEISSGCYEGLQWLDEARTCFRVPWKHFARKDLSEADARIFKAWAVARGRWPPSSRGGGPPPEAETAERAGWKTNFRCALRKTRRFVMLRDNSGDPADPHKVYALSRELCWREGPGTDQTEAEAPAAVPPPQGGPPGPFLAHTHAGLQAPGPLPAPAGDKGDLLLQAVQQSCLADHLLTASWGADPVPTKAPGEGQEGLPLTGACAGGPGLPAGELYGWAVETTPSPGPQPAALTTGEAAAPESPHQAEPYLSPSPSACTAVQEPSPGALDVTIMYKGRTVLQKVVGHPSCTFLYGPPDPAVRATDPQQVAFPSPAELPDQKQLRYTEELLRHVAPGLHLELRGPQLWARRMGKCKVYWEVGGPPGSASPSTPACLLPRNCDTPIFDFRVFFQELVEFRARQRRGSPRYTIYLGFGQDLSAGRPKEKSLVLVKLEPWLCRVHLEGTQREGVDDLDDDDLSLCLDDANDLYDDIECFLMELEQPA
| Sequence | log fluorescence [z-score] |
| --- | --- |
| TCACTTTTGGCTTTCCTACTGTGCTAG | 1.15 |
| GTAGAACTGAGTATCGATTAGTGCTAG | 0.379 |
| TTAGGATTCCTTTTCCTTTAGTGCTAG | 2.5 |
| TTAGATACCGGGTTTCGATTAGTGCTA | 7.12 |
| TCAGGTCTGGGTATTTTACTGTGCTAG | -0.926 |
| AGACTTTTTTCAGACCTGTCGTGCTAG | 0.337 |
| GACGATATCTGGACTGGAGACGTGCTA | -0.333 |

Other studies, line by line
PHO4 full length, GST-tagged: Phosphate system positive regulatory protein PHO4, full length, GST-tagged (PHO4, Saccharomyces cerevisiae, UniProt P07270, residues 1-312)
Sequence of UniProt P07270 (whole entry, looked up): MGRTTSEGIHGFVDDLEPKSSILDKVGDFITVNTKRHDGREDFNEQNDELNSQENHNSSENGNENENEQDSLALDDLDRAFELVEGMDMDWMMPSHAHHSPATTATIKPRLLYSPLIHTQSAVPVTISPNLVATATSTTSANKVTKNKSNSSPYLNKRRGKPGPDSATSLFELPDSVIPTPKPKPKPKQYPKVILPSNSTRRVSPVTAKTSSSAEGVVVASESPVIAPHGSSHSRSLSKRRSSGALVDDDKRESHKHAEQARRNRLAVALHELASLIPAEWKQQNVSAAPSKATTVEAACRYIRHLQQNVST
| Substance | target | assay | system | conditions | how to read | endpoint | result |
| --- | --- | --- | --- | --- | --- | --- | --- |
| TACAAATTGGTCCGTCACGTTTCTTTTGTTGACTGTGTCTTGATTCGCTTGACGCTGCTG | PHO4 full length, GST-tagged | competition protein-binding microarray | double-stranded DNA, one strand shown, in vitro | 2 µM, whole 60-bp probe, lowest competitor level, together with: Cbf1 competitor, 0.05 µM | higher = stronger binding | fluorescence intensity | 13200 a.u. |
| PhoQ, residues 284 288 289 292 302 303 AGHLVA | PhoP, residues 12 14 15 18 19 NHFIF (Escherichia coli, UniProt P23836) | Sort-seq, refers to: YFP reporter | E. coli | PhoQ-PhoP variant library, together with: 10 µM Mg2+ | relative to: high Mg2+ state, higher = stronger signaling | fold induction | 0.587 |
| GTTACCCTCATAAAGCACGTGGCCGCTTATCGAGAAGTCTTGATTCGCTTGACGCTGCTG | PHO4 full length, GST-tagged | competition protein-binding microarray | double-stranded DNA, one strand shown, in vitro | 2 µM, whole 60-bp probe, lowest competitor level, together with: Cbf1 competitor, 0.05 µM | higher = stronger binding | fluorescence intensity | 17900 a.u. |
